# Measurements from different studies.
# Every numbered part comes from another study and shows a few of its results, in no order.

# Set 1
# Target: Phosphate system positive regulatory protein PHO4, full length, GST-tagged (PHO4, Saccharomyces cerevisiae, UniProt P07270, residues 1-312)
# Method: competition protein-binding microarray
# Molecule type: double-stranded DNA, one strand shown
# Sample: in vitro
# Concentration: 2 µM
# Notes: whole 60-bp probe, lowest competitor level
# With: Cbf1 competitor, 0.05 µM
# Reading: higher = stronger binding
# All sequences stand within: … GTCTTGATTCGCTTGACGCTGCTG
# Residues (chain): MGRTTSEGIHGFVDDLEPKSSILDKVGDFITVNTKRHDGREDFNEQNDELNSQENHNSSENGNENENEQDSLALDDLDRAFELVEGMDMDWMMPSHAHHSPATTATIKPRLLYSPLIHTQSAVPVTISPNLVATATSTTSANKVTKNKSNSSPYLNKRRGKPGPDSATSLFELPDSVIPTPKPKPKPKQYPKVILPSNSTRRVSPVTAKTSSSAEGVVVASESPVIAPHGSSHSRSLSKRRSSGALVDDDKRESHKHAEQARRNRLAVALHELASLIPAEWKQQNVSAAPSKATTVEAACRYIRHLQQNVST
Oligonucleotide,fluorescence intensity [a.u.]
CACAAAGGTTCGTTGACCGTGCCGAGGAACTTCCGC,6080
GAAAGATGTAGAAAACTCGTGGAGGTAGGATTATAC,9500
TCTTCCGCGATGTTTCTCGTGGTGAGGCTATGGGCA,6500
CATACCCAACCTTGTCACACCACTTAAGATATTTGT,5070
TGCGCAACAACTTGCGTAGTGGGTGTATGTCTAGAA,5200
TCTTTTTCGACCGGCCACGTGAGAAGACATACAGTT,14900
TGCGCAACAACTTGTCACTTGACTTTATGTCTAGAA,3400
TGTTAAAGTTGTATCCATGTGTGCCCATAATGCCGA,8560
AATTTCAACGACAGGTTCGTGCTTTTCACCTTCACC,6100
CTGGTGTCTAATATGCACATGCCTGGTACTACCAGT,9890
CTTTCCCGATCTTGTCACATGACTTTAGCACATTTG,6090
CGGGGTTAAGTTTGTCACAGAACTTGCTTGCAGCAG,3230
GAAAATCATCCATTACACGTGTTTTCCTCTTTGATT,18400
GATGGCCATTGATAACGCGTGAAATTTTCCAGGGTG,4770
CGTCCTAGTGATTGTAATGTGGGTGCCATGAGGAAG,7070
GACGGAAGACTCTCCTCCGTGCGATCTCGTCTTCAT,4610
TGGCCTAAGATGAAGGTCGTGCTTTTTGTTCAATTG,7680
AGGAAATCAAGACTGAACGTGTTGAAGATCAAAAGG,10100
GTCGACGATACATACAGAGCTGTTACAAAGTTCCAT,3210
AAAGCGGTAATTTGACACGTGGGTGCAGATATCTAT,18200
CACCAATTCCCAGAGCACATGATGCCTCCACGGAAT,11300
CATACCCAACCTTGCTTGGTGGGTGAAGATATTTGT,3980
TTACGGTAGAGGGAGCACATGGGCGGAAACAAACCT,10200
CCGTCCTTTTCACTTCACGTTCGCAGGGCTTTCCTG,7450
CGGGGTTAAGTTTGTCACAAAACTTGCTTGCAGCAG,3250

# Set 2
# Target: Hepatocyte nuclear factor 3-alpha (Foxa1, Mus musculus, UniProt P35582, residues 1-468, full length assumed)
# Method: EMSA with sequencing
# Molecule type: double-stranded DNA, one strand shown
# Sample: in vitro
# Concentration: 10 and 20 nM
# Notes: whole designed probe, mean of two concentrations, ends assumed
# Relative to: negative control set to 0
# Reading: higher = stronger binding
# All sequences stand within: GTGAGCGGTGCCCATTGATGGGGAAC … TTTCACTGGGATCGTGGGGAC
# Construct (chain): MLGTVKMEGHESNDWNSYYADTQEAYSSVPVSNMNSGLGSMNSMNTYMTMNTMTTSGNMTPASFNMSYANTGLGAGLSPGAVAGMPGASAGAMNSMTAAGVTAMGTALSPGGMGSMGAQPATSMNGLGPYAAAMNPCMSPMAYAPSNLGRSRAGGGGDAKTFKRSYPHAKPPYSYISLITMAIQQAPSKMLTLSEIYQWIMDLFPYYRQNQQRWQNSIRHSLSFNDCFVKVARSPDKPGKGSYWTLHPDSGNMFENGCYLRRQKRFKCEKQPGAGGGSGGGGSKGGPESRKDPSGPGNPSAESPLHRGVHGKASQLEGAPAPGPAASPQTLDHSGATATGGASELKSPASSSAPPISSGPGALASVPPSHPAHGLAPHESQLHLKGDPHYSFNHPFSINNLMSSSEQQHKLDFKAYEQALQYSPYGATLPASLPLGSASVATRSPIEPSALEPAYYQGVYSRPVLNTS
Oligonucleotide,normalised bound fraction [ratio]
ATCTTCCCCCTCTTCCTTGCCCCACCAGCTCACCTTCCCGGGTATATTGGAGATAGGAAATTAATATAAGCCGGCATTCGTTAACCCTCTTCTGGCGCAAACTGCTGTTTACTTTGGATGAATCATGGTCCTTTGGCGACGCCAGGCTCCGGGAGAGCAAAGCACCGTGTCAGGGCCATGATCCGGGGTGGCC,0.35
AATCTAAGCACAGGATGACAATAAAATGTTATGAAACCTGTACAATTTCTTAAAAATTTTATTAAAGAAAATATAAATAGTTAAATAAAAGCCATGTTTACACTGAAATAAAATAAAGGATGGGAAAAGGTAGTATCTAAGTTTTCTACTTATTGGCAATCCTATAAGTTATAGTTTTTGAAATATTTAAAAG,0.168
ACTCTCTCACGCTCACATGCACCTTCAGTTTTTCCCTTGCTGTCCCCCCATATGGGAGGAAGAGAAGATGTCTCCAGAAGTGTGAGCAGAGTAAGTAAACATGGAGAGTTTGTGATGCTTTGGTGACAATTACCTCTCCTTTCTGCTTCTGGCTGCTGTGGTTCCAGATGGTGGAAACGTTCCGTCCGATTCT,0.291
TAGCTACATCCTCTCTCCCCACATCAAGGAAGTGGCACTTCAATCCCCACCCTTTGAGTGTGAACTGCACTTATGACACCTGAGGGAGGAAAAGTAATTTCGGTGGATCAACCTGGCAAACACTTTCTGACTCATACAGTCAAGGTTAATATCCACATGATAAGACATGTCGATCGCATACACCCCTGATATG,-0.0404
TGCAAAGGGCAAGATAGTTTCTCTGCTGTTAGCTTCAAAGGTTGTAGGTAATAAATTAAAAACTATAAGCAAATTTAAAGAATTAAAAGAAAAGCAAATAACTCTTGAGACTGATTTAGGTAGGTAATTTATCACTTCTTTATATCTCTCCCAGGAGATTAACTAGAGAAACTGTGGATATTGTATCAATGAG,0.332
CTTGCTTACTGCTAGCACAGCAGTCTGAGATGCATCTGCGAGGCGGCAGCCTGGCTGGGGGAGGGGTATCCGCCATTGCTGAGGCTTGAGTAGGTAAACAAAGCAGCCAGGAAGCTCGAACTGGGCGGAGCCCACCTCAGCTCAACAACGCCTACTGCCTCTAGACTCCACCTCTGTGGGCAGGGCACAGCTG,0.409
AGCTTAAGGAAGTTCTAACGCCCCCCTCCCCTCCTTTATTTTTGAGTTGAAAGAGGGTAGAATCAAAAACAATACTGAGAGGGGTCTAAAAATGCAAACACAGAGAGTTGCTGGTTTAGGAGGGCTGGGAGGCTATGGGAGACCATAGGCATAGAGAAAACATTCCTTCTCTGTGACTCTCGGGCGCGAGCGA,0.453
CAAGTTTGTGGTCCAGGAGCAACAGGTTATGCCATACAGCCTAGGTGTGTAGTAGGCTACACACCGTCTATGTTTGTGTTGTACACTCTACAATGTTTGCACAATGATGAAATCTTCCATGACTCATCTCAGAACATACCCCTGTTGTTAAGCGATACATGACTGTACTTTTTTTAAAAAGTCCAAGGATATA,0.453

# Set 3
# Target: Transcription factor Sp1 (SP1, Homo sapiens, UniProt P08047, residues 1-785, full length assumed)
# UniProt P08047, sequence (whole entry, looked up): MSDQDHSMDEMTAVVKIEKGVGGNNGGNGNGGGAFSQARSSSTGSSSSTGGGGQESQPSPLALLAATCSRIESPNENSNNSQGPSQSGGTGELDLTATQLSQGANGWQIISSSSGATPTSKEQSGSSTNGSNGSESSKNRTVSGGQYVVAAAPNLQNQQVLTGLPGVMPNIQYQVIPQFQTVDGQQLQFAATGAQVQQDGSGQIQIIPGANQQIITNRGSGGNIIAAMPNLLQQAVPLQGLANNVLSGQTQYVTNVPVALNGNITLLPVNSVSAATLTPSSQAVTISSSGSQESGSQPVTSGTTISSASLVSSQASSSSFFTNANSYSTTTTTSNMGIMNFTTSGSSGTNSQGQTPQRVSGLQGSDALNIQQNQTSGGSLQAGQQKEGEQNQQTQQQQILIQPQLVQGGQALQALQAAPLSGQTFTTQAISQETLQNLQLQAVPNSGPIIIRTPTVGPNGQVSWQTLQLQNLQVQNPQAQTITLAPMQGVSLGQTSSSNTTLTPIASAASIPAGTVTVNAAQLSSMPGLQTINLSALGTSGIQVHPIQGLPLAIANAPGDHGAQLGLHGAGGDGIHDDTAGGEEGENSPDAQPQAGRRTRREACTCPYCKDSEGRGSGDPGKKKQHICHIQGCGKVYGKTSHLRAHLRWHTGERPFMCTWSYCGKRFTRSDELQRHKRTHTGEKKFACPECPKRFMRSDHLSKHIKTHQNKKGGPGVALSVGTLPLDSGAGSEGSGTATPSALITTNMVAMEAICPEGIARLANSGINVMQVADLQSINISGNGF
# Method: protein-binding microarray
# Molecule type: double-stranded DNA, one strand shown
# Sample: in vitro
# Concentration: not given
# Notes: k-mer, scored over probes, only values ≥0.25
# Reading: higher = stronger binding
Oligonucleotide,E-score
CATGGGCG,0.29
ATGACACC,0.253
CGCCCCTC,0.48
AGGGGTAT,0.311
CCCCGCCG,0.332
CCTCCCCG,0.439
CGTTAACG,0.268
TACATGTA,0.29
ATAACGTG,0.293
CCACCCCA,0.473
GTTTGGTA,0.296
CCCACCTA,0.359
CTCCCATA,0.274
GTATCATA,0.266
CACAACAC,0.332

# Set 4
# Target: RNA binding protein fox-1 homolog 2, RRM domain, GST-SBP tag (RBFOX2, Homo sapiens, UniProt O43251-10, residues 100-194)
# Method: RNA Bind-n-Seq
# Molecule type: RNA
# Sample: in vitro
# Concentration: 365 nM
# Notes: natural RNA segment, single round, ends assumed
# Relative to: no-protein control
# Reading: higher = stronger binding
# All sequences stand within: GGGAGUUCUACAGUCCGACGAUC … UGGAAUUCUCGGGUGCCAA
# Target sequence (chain): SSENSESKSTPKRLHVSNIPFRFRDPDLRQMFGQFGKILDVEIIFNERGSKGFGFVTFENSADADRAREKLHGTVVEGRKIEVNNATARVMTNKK
Oligonucleotide,RBNS enrichment (R)
AUCUUGUAGCACCAACUGCUGUAAGGGAAUGCUGCAGACAGUGCUUGGGCGAGUGUGGCGCCAACAAGCCUGAGAUUCAAACGCUUUCCAUUUAAGCAAACCUCUUCUUG,0.658
UCCCUCUGGACUCAGAGGGAACAAGGUGGGAGAGAGAGUUUGAGACAGCUCCGUGUGGAGAGCUUAGCCCCUGGAGGCAGCACAAGGAGGAUGUGAUAUGUGGGGGAGUG,2.05
GCUUUUUCAUCAAUGGAGAAAUGAAAGGAAAACACAAGCAAGAAAAAAGUUAACUUGUAUUAUGUAUUUUUACUACACUUUUCUUAAAAAUAGAGCAUUGGGAAAACUCU,0.38
GCUUUUCAUUUAGGUAGAUGGUAAGCAUUCUCUUAAUCAUAAUUAGAACAAACUAGUGACCAAAUUGUCAUCUGCUAGUAUGGAAGUUCUUAGUUUUCUUAACCAUGCUU,0.452
CCUCCUCAUUCUCUUUUGCCAUUGGAAUGUCCCCUUGCAGUUCUCUUCUCUUUUUUUUUUUUUUUGAGAUGGAGUUUCACUCUUGCUGCCCAGGCUGGAGUGCAGUGGCU,0.881
ACGUGACUCAGCAGUGCCCGCCGCCGUCACCAGCUAUGCAUUCACUCCGUUUCCAGUGAGCAGAUGUCUUGCUUGGAAAGUGGACCUGUGUCUGUGUCUGUCCUGAGAAC,0.213
GCCAAGGGAGGUGCCAAUGCUGGGCUUACCAUAGUCCAGGAAGAAUAUGAGGACUAGGGGCACACAAGAGUCUAGCUUCGUCUCCAGGACUCCCUUGGCUCAGAGUGUGG,0.669
GCAACAGUGCUCAAAUGUAUGAGUUUGGAGAAGUUAACAAUCAGAAGAACAAAAACUGUAGUGUUUCACCUUUAAAUGCAGUGUUGAAGAGGGAGCCUUUCUCUAAGCCC,0.552
CCUUCCCUGCCAGCAGUCUUCUCCAUACACGACAGGGCGUGUUCUCCACCAGGCCUGUAACAUCUUGUUGAGAUCAUUUCUAUGGCCCAAUACUUGUCGCUCUGGGGUUU,0.341
GUGCUGUUAAGCAUUAGCUGGCUUCCUUGUUCAUUGUUCCAAGAGAUGGGUGUGGAGAGACGGCUUAGUGUAGGAUCCUCUCGAAUGAAGCCUGUGUAAUCCUGUUACAG,0.75
GCGUAGCAUUGUAAGCGCUGAAGUAUAUAUUUUCUUCAGUAAGUCUCUUUAAAAUUUCAAGUGUUAUCAUGAUUGUUUAUAUGAAUGUAGAACACCUCGGUAUUUCUUUU,0.63
AAGGCUUCGCUUACUAAGUUUCUGAAUGGCCGAGUAGCCACACCCUAGAGCUAGCAGUCCUCAUCCAGGCAACCGAGGGCAGUGGUUUUGUUUGUGUUCUUGGCUGUUCC,1.3

# Set 5
# Target: Histone acetyltransferase KAT6A, winged helix 2, GST fusion (KAT6A, Homo sapiens, UniProt Q92794, residues 85-181)
# Method: protein binding microarray
# Molecule type: double-stranded DNA, one strand shown
# Sample: in vitro
# Concentration: not given
# Notes: 8-mer, flanks averaged, mean of 2 arrays, mostly near background
# Relative to: not given
# Reading: higher = stronger binding
# Residues (chain): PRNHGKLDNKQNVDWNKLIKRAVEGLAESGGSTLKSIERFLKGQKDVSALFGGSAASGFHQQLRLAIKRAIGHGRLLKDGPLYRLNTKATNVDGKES
Oligonucleotide,E-score
CCTTACTC,0.00217
GAACGCAC,0.154
AAGTCTGT,-0.195
GCTTCAGA,-0.0274
TACAATGA,-0.222
CATTATTC,0.00831
GTCAGGAC,0.0176
CTTGGTCA,0.0793
GGAGAATA,-0.00884
AGCACGCC,0.0967
TGGCCAAA,-0.0403
TATAGAAA,0.0025
GGTCGGAC,-0.057
CAAACATG,-0.182
GATGTCAC,-0.0198
ACCAACAT,-0.0133
AAAGTCTT,-0.281
ATCGAGTG,0.0948
AGCGTAAA,0.0108
GGGTTAAA,-0.236
CCAGCTAA,-0.0714
CGCGTGGA,-0.016

# A few entries again (set 3):
Oligonucleotide,E-score
CGCCCCTC,0.48
TACATGTA,0.29
GTATCATA,0.266
CACAACAC,0.332
ATGACACC,0.253
CCACCCCA,0.473
AGGGGTAT,0.311
